Results pooled from the literature.
Protocols differ between the studies behind these lines. “And” joins repeats or separate records; there may be more than shown. ± gives the spread as reported.

`CC(C)C[C@H](NC(=O)CNC(=O)[C@H](Cc1ccccc1)NC(=O)[C@@H](NC(=O)[C@@H](NC(=O)c1cccc(S(=O)(=O)F)c1)[C@@H](C)O)C(C)C)C(=O)N[C@@H](CC(N)=O)C(=O)N[C@H](C(=O)N[C@@H](Cc1c[nH]c2ccccc12)C(=O)N[C@@H](CCCCN)C(=O)N[C@@H](CCCNC(=N)N)C(=O)N[C@@H](Cc1ccc(O)cc1)C(=O)N[C@@H](CO)C(=O)N[C@@H](CCCCN)C(=O)NCC(=O)N[C@@H](CCCCNc1ccc([N+](=O)[O-])cc1[N+](=O)[O-])C(N)=O)C(C)C` gave a degradation half-life of about 24 h (chemical stability, LC-MS, UV trace; PBS/DMSO/water; 52 µM, 10% DMSO, 80% water).
Under “mean platelet volume”, `CC(C)[C@@H]1NC(=O)CNC(=O)[C@H](CC(N)=O)NC(=O)[C@H](CCCNC(=N)N)NC(=O)[C@H](Cc2ccc(O)cc2)NC(=O)[C@H](C(C)C)NC(=O)[C@@H](NC(=O)[C@@H](NC(=O)[C@H](CC(N)=O)NC(=O)[C@H](Cc2c[nH]c3ccccc23)NC(=O)[C@H](C)NC(=O)[C@H](Cc2ccccc2)NC(=O)CNC(=O)[C@H](CCCCN)NC(=O)[C@H](Cc2ccccc2)NC(=O)[C@H](Cc2ccccc2)NC(=O)[C@H](CCCCN)NC(=O)OCC2c3ccccc3-c3ccccc32)C(C)C)CSSC[C@@H](C(=O)N[C@@H](Cc2c[nH]cn2)C(=O)N[C@@H](CCCNC(=N)N)C(=O)N[C@@H](CCCNC(=N)N)C(=O)N[C@@H](C)C(=O)N[C@@H](CC(N)=O)C(N)=O)NC(=O)[C@H](C(C)C)NC(=O)[C@H](CCCNC(=N)N)NC1=O` is recorded as 6.86 ± 0.24 fL (ICR mice, blood; intraductal mammary, 5 mg/kg, day 5).
`Cc1cc(-c2ccc3ccccc3c2)nnc1NCCN1CCN(C)CC1` gave a compound remaining of 88.5% (metabolic stability; rat, liver microsomes; 20 min).
The SUVmean of `CC[C@H](C)[C@H](NC(=O)[C@H](CCCCN)NC(=O)CNC(=O)[C@H](CC(C)C)NC(=O)[C@H](Cc1ccccc1)NC(=O)[C@H](CCCCN)NC(=O)[C@H](CO)NC(=O)[C@H](Cc1ccccc1)NC(=O)[C@H](Cc1c[nH]c2ccccc12)NC(=O)[C@H](CCC(N)=O)NC(=O)[C@@H](NC(=O)[C@H](Cc1ccccc1)NC(=O)CCCCCNC(=O)CN1CCN(CC(=O)O)CCN(CC(=O)O)CCN(CC(=O)O)CC1)C(C)C)C(=O)N[C@@H](CCC(=O)O)C(=O)N1CCC[C@H]1C(=O)N[C@@H](CC(=O)O)C(=O)N[C@H](C(=O)N[C@@H](CO)C(=O)N[C@@H](CCC(N)=O)C(=O)N[C@H](C(=O)N[C@@H](CCC(N)=O)C(=O)N[C@@H](CC(=O)O)C(=O)N1CCC[C@H]1C(=O)N[C@@H](CC(N)=O)C(=O)N[C@@H](CC(=O)O)C(=O)N[C@@H](CCC(N)=O)C(=O)N[C@@H](Cc1ccc(O)cc1)C(=O)N[C@@H](CCC(=O)O)C(=O)N1CCC[C@H]1C(=O)N[C@@H](Cc1ccccc1)C(=O)O)C(C)C)C(C)C` [copper-64 labelled] is reported as 1.19 SUV (dynamic PET; mouse both sexes, CT26 tumour, untreated, tumour; intravenous, 100 µCi/mouse, 170 s).
The viability of `Cc1ccc(OCCN(C)C)cc1C(=O)N[C@H](C)c1cc(-c2ccc(C(F)(F)F)s2)nc2ccccc12` is reported as 0% and 1.69% (Vero E6; 31.25 µM).
`CSCC[C@H](N)C(=O)N[C@@H](C)C(=O)N[C@@H](Cc1c[nH]c2ccccc12)C(=O)N[C@@H](Cc1c[nH]cn1)C(=O)N[C@@H](CC(=O)O)C(=O)N[C@@H](CC(=O)O)C(=O)N[C@@H](CCC(=O)O)C(=O)N[C@@H](CCC(=O)O)C(=O)N[C@@H](Cc1ccccc1)C(=O)N[C@@H](C)C(=O)N[C@@H](CCCNC(=N)N)C(=O)N[C@@H](CCCNC(=N)N)C(=O)N[C@@H](CCCNC(=N)N)C(=O)N[C@@H](CCCNC(=N)N)C(=O)NCCCCCC(=O)NCCCCC(NC(=O)CCCCCNC(=O)[C@H](CCCNC(=N)N)NC(=O)[C@H](CCCNC(=N)N)NC(=O)[C@H](CCCNC(=N)N)NC(=O)[C@H](CCCNC(=N)N)NC(=O)[C@H](C)NC(=O)[C@H](Cc1ccccc1)NC(=O)[C@H](CCC(=O)O)NC(=O)[C@H](CCC(=O)O)NC(=O)[C@H](CC(=O)O)NC(=O)[C@H](CC(=O)O)NC(=O)[C@H](Cc1c[nH]cn1)NC(=O)[C@H](Cc1c[nH]c2ccccc12)NC(=O)[C@H](C)NC(=O)[C@@H](N)CCSC)C(=O)NCCCCC(NC(=O)C(CCCCNC(=O)CCCCCNC(=O)[C@H](CCCNC(=N)N)NC(=O)[C@H](CCCNC(=N)N)NC(=O)[C@H](CCCNC(=N)N)NC(=O)[C@H](CCCNC(=N)N)NC(=O)[C@H](C)NC(=O)[C@H](Cc1ccccc1)NC(=O)[C@H](CCC(=O)O)NC(=O)[C@H](CCC(=O)O)NC(=O)[C@H](CC(=O)O)NC(=O)[C@H](CC(=O)O)NC(=O)[C@H](Cc1c[nH]cn1)NC(=O)[C@H](Cc1c[nH]c2ccccc12)NC(=O)[C@H](C)NC(=O)[C@@H](N)CCSC)NC(=O)CCCCCNC(=O)[C@H](CCCNC(=N)N)NC(=O)[C@H](CCCNC(=N)N)NC(=O)[C@H](CCCNC(=N)N)NC(=O)[C@H](CCCNC(=N)N)NC(=O)[C@H](C)NC(=O)[C@H](Cc1ccccc1)NC(=O)[C@H](CCC(=O)O)NC(=O)[C@H](CCC(=O)O)NC(=O)[C@H](CC(=O)O)NC(=O)[C@H](CC(=O)O)NC(=O)[C@H](Cc1c[nH]cn1)NC(=O)[C@H](Cc1c[nH]c2ccccc12)NC(=O)[C@H](C)NC(=O)[C@@H](N)CCSC)C(N)=O` (stereo partly drawn) — result for “mean tissue distribution”: 0.84% (C57BL/6 mouse female, heart; dose not given, 6 h; relative to: total).
For `CC(C)(CCCC/C=C/CCCCCC(C)(C)C(=O)O)C(=O)O`, the plasma concentration was 21500 ng/mL (ICR mice, both sexes; oral, dose not given, 0.083 h).
With `Cc1ccc(OCCN(C)C)cc1C(=O)N[C@H](C)c1cc(-c2cncs2)nc2ccccc12` the viability was 131% and 110% (Vero E6; 15.62 µM).
With `Oc1c(Br)cc(Br)c2nc3ccccc3nc12` the haemolysis was at most 1% (haemolysis; 200 µM).
For `COc1cc2ncnc(Oc3ccc(Nc4nccc5[nH]cc(-c6ccc(F)cc6)c(=O)c45)cc3F)c2cc1OC`, the NOAEL was 10 mg/kg/day (general toxicity; Sprague-Dawley rat; oral, multiple doses, once daily).
`CN1Cc2cc(Cl)ccc2-n2c(nnc2C2CCN(c3cccc([18F])n3)CC2)C1` gave a tissue uptake of 2.49 ± 0.65 %ID/g (C57BL/6 mouse male, muscle; intravenous, dose not given, 30 min, with: blocking agent 10 mg/kg).
The prothrombin time of `O=C1NC2(CC2)COc2ncc(F)cc2[C@H]2COCCN2c2ccn3ncc1c3n2` is reported as 8.9 ± 0.5 s (Sprague-Dawley rat, male, plasma; oral, 5 mg/kg/day, end of treatment, 4-week repeated-dose toxicity).
For `CCN(CCCCOc1ccc(CCC(=O)N2CCC(Cc3ccccc3)CC2)cc1OC)Cc1ccccc1`, the excretion rate was 0.0573 ± 0.0083% (Sprague-Dawley rats, both sexes, urine; oral gavage, 25 mg/kg, 0 to 48 h; relative to: dose).
With `C/C(=N\OCCCN1CCCCC1)c1ccc(C(F)(F)F)cc1` the Cmax was 706 ± 145 ng/mL (mouse, plasma; oral, 50 mg/kg once daily, day 1).
Under “PCE to total erythrocyte ratio”, `Cc1ccc(OCC(=O)N(Cc2cccs2)c2ccn[nH]2)cc1` is recorded as 0.64 ± 0.08 (micronucleus; CD-1 mouse Crl:CD-1(ICR), female, bone marrow; oral, 1000 mg/kg/day, 3 days).

Repeated from above:
`CSCC[C@H](N)C(=O)N[C@@H](C)C(=O)N[C@@H](Cc1c[nH]c2ccccc12)C(=O)N[C@@H](Cc1c[nH]cn1)C(=O)N[C@@H](CC(=O)O)C(=O)N[C@@H](CC(=O)O)C(=O)N[C@@H](CCC(=O)O)C(=O)N[C@@H](CCC(=O)O)C(=O)N[C@@H](Cc1ccccc1)C(=O)N[C@@H](C)C(=O)N[C@@H](CCCNC(=N)N)C(=O)N[C@@H](CCCNC(=N)N)C(=O)N[C@@H](CCCNC(=N)N)C(=O)N[C@@H](CCCNC(=N)N)C(=O)NCCCCCC(=O)NCCCCC(NC(=O)CCCCCNC(=O)[C@H](CCCNC(=N)N)NC(=O)[C@H](CCCNC(=N)N)NC(=O)[C@H](CCCNC(=N)N)NC(=O)[C@H](CCCNC(=N)N)NC(=O)[C@H](C)NC(=O)[C@H](Cc1ccccc1)NC(=O)[C@H](CCC(=O)O)NC(=O)[C@H](CCC(=O)O)NC(=O)[C@H](CC(=O)O)NC(=O)[C@H](CC(=O)O)NC(=O)[C@H](Cc1c[nH]cn1)NC(=O)[C@H](Cc1c[nH]c2ccccc12)NC(=O)[C@H](C)NC(=O)[C@@H](N)CCSC)C(=O)NCCCCC(NC(=O)C(CCCCNC(=O)CCCCCNC(=O)[C@H](CCCNC(=N)N)NC(=O)[C@H](CCCNC(=N)N)NC(=O)[C@H](CCCNC(=N)N)NC(=O)[C@H](CCCNC(=N)N)NC(=O)[C@H](C)NC(=O)[C@H](Cc1ccccc1)NC(=O)[C@H](CCC(=O)O)NC(=O)[C@H](CCC(=O)O)NC(=O)[C@H](CC(=O)O)NC(=O)[C@H](CC(=O)O)NC(=O)[C@H](Cc1c[nH]cn1)NC(=O)[C@H](Cc1c[nH]c2ccccc12)NC(=O)[C@H](C)NC(=O)[C@@H](N)CCSC)NC(=O)CCCCCNC(=O)[C@H](CCCNC(=N)N)NC(=O)[C@H](CCCNC(=N)N)NC(=O)[C@H](CCCNC(=N)N)NC(=O)[C@H](CCCNC(=N)N)NC(=O)[C@H](C)NC(=O)[C@H](Cc1ccccc1)NC(=O)[C@H](CCC(=O)O)NC(=O)[C@H](CCC(=O)O)NC(=O)[C@H](CC(=O)O)NC(=O)[C@H](CC(=O)O)NC(=O)[C@H](Cc1c[nH]cn1)NC(=O)[C@H](Cc1c[nH]c2ccccc12)NC(=O)[C@H](C)NC(=O)[C@@H](N)CCSC)C(N)=O` (stereo partly drawn) — result for “mean tissue distribution”: 0.84% (C57BL/6 mouse female, heart; dose not given, 6 h; relative to: total).
For `CC(C)(CCCC/C=C/CCCCCC(C)(C)C(=O)O)C(=O)O`, the plasma concentration was 21500 ng/mL (ICR mice, both sexes; oral, dose not given, 0.083 h).
